Assay results from different studies.
Each numbered part is a random draw from the data of one study; scales do not carry over between parts. Several values in a cell are separate wells, animals, samples, runs or records.
Sequence of UniProt P42336 (whole entry, unmodified, looked up): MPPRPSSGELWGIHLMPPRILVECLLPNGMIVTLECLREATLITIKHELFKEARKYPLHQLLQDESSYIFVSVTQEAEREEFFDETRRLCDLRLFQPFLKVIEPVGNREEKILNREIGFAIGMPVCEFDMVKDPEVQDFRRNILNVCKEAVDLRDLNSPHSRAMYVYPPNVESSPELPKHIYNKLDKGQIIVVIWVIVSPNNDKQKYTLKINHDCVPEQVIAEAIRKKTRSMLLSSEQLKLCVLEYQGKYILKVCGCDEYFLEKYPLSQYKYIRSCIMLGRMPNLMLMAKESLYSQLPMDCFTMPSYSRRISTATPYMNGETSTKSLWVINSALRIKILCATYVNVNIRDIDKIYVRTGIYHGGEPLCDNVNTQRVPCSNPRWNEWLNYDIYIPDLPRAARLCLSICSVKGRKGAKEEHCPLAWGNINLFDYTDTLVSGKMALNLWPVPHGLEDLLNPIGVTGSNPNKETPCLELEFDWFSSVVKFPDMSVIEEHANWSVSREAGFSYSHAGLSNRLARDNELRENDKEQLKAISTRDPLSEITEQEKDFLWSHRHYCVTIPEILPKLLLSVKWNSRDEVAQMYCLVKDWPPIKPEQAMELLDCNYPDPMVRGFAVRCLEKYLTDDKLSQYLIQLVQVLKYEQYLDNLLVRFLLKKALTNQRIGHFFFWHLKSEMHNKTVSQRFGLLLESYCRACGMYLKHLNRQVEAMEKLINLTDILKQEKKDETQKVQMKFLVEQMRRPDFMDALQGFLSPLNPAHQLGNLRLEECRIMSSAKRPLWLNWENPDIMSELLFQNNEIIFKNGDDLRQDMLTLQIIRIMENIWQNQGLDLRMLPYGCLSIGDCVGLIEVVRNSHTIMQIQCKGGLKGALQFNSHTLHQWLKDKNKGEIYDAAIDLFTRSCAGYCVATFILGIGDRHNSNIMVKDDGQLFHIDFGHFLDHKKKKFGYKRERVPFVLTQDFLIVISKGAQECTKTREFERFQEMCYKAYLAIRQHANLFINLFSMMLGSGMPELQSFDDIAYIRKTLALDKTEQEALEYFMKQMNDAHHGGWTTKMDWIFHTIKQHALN
Sequence of UniProt Q9H4B4 (whole entry, looked up): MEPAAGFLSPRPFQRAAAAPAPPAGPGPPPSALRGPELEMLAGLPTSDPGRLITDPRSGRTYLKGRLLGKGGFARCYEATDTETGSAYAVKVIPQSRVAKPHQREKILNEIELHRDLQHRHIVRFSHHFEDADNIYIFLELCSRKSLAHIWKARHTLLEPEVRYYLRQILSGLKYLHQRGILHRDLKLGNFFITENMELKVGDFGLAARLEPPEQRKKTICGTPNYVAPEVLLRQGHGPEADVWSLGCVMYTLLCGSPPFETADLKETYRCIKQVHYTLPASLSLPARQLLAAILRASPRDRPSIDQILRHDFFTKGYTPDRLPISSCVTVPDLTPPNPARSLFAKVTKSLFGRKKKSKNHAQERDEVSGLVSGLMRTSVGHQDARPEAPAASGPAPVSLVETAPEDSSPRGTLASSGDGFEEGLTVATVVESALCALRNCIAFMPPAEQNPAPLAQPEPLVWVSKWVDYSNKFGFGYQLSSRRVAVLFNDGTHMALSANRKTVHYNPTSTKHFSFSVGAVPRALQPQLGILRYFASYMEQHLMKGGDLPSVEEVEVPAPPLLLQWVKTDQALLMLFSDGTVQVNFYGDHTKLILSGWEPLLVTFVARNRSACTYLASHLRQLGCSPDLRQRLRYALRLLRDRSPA
Sequence of UniProt Q6P2M8 (whole entry, looked up): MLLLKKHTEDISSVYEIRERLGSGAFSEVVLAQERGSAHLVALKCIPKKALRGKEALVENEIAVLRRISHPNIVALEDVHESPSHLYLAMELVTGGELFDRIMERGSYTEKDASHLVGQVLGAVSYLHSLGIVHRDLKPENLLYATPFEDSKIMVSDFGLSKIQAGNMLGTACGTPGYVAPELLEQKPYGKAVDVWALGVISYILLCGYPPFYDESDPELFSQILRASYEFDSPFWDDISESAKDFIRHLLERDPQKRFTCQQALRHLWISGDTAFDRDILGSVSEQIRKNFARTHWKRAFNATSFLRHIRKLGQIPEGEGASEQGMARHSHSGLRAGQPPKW

Sample 1 — observed: enzyme activity; action: inhibitor; concentration: 1 µM
SMILES: CO[C@@H]1[C@H](N(C)C(=O)c2ccccc2)C[C@H]2O[C@]1(C)n1c3ccccc3c3c4c(c5c6ccccc6n2c5c31)C(=O)NC4
target	inhibition
Death-associated protein kinase 3 (DAPK3, Homo sapiens, UniProt O43293)	45%
Serine/threonine-protein kinase D1 (PRKD1, Homo sapiens, UniProt Q15139)	0%
Mitogen-activated protein kinase kinase kinase 11 (MAP3K11, Homo sapiens, UniProt Q16584)	94%
Mast/stem cell growth factor receptor Kit (KIT, Homo sapiens, UniProt P10721, A829P)	90%
Serine/threonine-protein kinase DCLK3 (DCLK3, Homo sapiens, UniProt Q9C098)	0%
BMP-2-inducible protein kinase (BMP2K, Homo sapiens, UniProt Q9NSY1)	100%
Cyclin-dependent kinase 15 (CDK15, Homo sapiens, UniProt Q96Q40)	5%
Calcium/calmodulin-dependent protein kinase type II subunit delta (CAMK2D, Homo sapiens, UniProt Q13557)	96%

Sample 2 — cell line: Huh-7; concentration: 10 µM; time: 24 h
Compound	viability [%]
CC(=O)OCC(=O)[C@@]1(O)CC[C@H]2[C@@H]3CCC4=CC(=O)CC[C@]4(C)[C@@]3(F)[C@@H](O)C[C@@]21C	102
Nc1cc(N2CCCCC2)nc(N)[n+]1[O-]	97.8
c1ccc([C@H]2CN3CCSC3=N2)cc1	103
CN[C@@H]1[C@H](O[C@H]2[C@H](O[C@H]3[C@H](O)[C@@H](O)[C@H](NC(=N)N)[C@@H](O)[C@@H]3NC(=N)N)O[C@@H](C)[C@]2(O)CO)O[C@@H](CO)[C@H](O)[C@H]1O	98.6
C[C@]12CC[C@@H]3c4ccc(O)cc4CC[C@H]3[C@@H]1CC[C@@H]2OC(=O)CCC1CCCC1	88.5

Sample 3 — observed: enzyme activity; action: inhibitor; concentration: 77 µM; relative to: untreated
Target: DNA polymerase theta, ATPase domain (POLQ, Homo sapiens, UniProt O75417)
Sequence of UniProt O75417 (whole entry, unmodified, looked up): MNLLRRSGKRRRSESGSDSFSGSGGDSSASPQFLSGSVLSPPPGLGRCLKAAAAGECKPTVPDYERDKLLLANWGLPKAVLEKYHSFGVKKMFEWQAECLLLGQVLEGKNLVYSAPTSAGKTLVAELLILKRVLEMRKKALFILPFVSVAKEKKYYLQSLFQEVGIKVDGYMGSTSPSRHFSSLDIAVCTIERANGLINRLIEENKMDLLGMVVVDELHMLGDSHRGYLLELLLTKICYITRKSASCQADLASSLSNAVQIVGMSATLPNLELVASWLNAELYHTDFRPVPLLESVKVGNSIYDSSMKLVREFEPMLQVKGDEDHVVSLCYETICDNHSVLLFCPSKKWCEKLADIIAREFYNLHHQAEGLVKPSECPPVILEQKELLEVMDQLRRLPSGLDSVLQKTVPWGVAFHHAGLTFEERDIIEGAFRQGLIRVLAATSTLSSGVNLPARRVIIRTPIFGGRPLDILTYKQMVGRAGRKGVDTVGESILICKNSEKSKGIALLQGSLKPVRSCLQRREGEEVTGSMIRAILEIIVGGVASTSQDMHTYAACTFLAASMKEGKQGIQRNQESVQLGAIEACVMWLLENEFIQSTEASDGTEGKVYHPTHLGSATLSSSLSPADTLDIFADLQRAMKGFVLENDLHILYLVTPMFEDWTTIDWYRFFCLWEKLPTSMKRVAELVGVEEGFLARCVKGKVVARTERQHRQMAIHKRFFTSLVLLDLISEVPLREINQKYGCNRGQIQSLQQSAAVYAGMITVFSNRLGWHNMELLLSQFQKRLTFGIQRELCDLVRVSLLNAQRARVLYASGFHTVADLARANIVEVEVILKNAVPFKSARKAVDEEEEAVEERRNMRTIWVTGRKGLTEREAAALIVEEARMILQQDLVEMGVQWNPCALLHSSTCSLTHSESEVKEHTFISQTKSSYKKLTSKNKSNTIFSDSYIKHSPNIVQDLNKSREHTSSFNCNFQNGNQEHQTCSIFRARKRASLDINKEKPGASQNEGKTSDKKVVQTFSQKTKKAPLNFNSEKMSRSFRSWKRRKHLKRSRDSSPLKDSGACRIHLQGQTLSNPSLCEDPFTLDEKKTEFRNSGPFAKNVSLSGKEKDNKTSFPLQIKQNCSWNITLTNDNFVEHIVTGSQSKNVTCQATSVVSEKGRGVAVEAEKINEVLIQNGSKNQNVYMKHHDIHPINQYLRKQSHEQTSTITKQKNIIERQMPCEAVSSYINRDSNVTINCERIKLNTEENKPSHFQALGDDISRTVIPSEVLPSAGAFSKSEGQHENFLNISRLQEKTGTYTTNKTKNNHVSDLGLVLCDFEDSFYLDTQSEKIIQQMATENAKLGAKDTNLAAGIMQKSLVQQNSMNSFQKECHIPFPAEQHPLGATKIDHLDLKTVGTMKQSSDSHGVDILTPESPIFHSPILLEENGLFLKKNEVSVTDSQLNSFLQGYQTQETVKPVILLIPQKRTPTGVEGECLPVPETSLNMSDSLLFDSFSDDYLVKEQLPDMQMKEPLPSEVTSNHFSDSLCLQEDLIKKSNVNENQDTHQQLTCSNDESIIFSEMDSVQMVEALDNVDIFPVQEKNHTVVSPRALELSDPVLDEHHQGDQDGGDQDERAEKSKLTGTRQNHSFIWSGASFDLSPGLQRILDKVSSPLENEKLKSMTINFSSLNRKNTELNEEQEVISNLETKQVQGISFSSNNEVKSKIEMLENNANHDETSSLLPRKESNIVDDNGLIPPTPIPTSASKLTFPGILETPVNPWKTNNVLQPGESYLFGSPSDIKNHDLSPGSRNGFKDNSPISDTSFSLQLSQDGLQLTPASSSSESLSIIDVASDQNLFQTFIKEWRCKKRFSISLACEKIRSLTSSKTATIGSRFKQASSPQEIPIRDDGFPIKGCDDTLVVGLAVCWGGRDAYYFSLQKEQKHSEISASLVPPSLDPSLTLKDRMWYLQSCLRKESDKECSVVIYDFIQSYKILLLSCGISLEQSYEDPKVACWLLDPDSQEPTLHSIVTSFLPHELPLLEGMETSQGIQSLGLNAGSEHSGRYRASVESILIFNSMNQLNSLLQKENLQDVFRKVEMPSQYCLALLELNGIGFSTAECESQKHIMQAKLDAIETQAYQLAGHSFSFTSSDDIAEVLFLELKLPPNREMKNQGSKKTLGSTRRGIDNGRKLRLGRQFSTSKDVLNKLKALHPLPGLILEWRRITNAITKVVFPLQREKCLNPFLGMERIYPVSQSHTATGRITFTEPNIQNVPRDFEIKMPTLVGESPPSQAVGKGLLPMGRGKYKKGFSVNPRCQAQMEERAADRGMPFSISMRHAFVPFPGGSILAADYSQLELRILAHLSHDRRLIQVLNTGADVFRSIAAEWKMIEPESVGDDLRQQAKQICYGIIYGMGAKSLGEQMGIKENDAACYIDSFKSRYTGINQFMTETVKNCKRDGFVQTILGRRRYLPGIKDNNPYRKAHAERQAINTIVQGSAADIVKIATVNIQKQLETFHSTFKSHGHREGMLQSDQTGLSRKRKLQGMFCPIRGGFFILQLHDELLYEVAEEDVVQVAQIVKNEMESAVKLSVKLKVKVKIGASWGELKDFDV
SMILES	remaining activity
NS(=O)(=O)c1cc2c(cc1Cl)NC(CC1CCCC1)NS2(=O)=O (stereo not shown)	101%
CN(Cc1cnc2nc(N)nc(N)c2n1)c1ccc(C(=O)N[C@@H](CCC(=O)O)C(=O)O)cc1 (racemic)	101%
Cc1coc2c1C(=O)C(=O)c1c-2ccc2c1CCCC2(C)C	101%
CC[C@H](C)[C@H](N)C1=N[C@H](C(=O)N[C@@H](CC(C)C)C(=O)N[C@H](CCC(=O)O)C(=O)N[C@H](C(=O)N[C@H]2CCCCNC(=O)[C@H](CC(N)=O)NC(=O)[C@@H](CC(=O)O)NC(=O)[C@H](Cc3cnc[nH]3)NC(=O)[C@@H](Cc3ccccc3)NC(=O)[C@H]([C@@H](C)CC)NC(=O)[C@@H](CCCN)NC2=O)[C@@H](C)CC)CS1	102%
CCCCCCCCc1ccc(CCC(N)(CO)CO)cc1	110%
OCCn1cc(-c2cnc3nnn(Cc4ccc5ncccc5c4)c3n2)cn1	110% and 105% and 118% and 116%
CNC[C@H](O)[C@@H](O)[C@H](O)[C@H](O)CO	102% and 95.8%
CC(=O)[C@]1(O)Cc2c(O)c3c(c(O)c2[C@@H](O[C@H]2C[C@H](N)[C@H](O)[C@H](C)O2)C1)C(=O)c1ccccc1C3=O	65% and 63.5%

Sample 4 — observed: enzyme activity; action: inhibitor; concentration: 10 µM
Target: Calcium/calmodulin-dependent protein kinase type II subunit alpha (CAMK2A, Homo sapiens, UniProt Q9UQM7)
Sequence of UniProt Q9UQM7 (whole entry, looked up): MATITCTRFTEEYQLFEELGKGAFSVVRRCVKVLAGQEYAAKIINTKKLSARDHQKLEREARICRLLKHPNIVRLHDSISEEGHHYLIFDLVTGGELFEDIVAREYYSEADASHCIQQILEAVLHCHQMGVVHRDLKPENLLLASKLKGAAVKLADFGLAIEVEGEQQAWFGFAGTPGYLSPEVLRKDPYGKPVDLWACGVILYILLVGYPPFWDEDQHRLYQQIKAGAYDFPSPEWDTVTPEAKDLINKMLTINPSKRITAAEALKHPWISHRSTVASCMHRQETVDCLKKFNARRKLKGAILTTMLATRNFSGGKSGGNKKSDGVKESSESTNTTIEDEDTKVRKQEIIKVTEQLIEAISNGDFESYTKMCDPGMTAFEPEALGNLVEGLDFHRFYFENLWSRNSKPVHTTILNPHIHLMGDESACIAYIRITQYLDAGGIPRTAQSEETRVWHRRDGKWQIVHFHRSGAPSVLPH
Compound	inhibition
O=C(O)[C@H](O)[C@@H](O)C(=O)O	-0.32%
CCn1cc(C(=O)O)c(=O)c2ccc(C)nc21	-2%
CCN(C(=O)c1c(O)c2c(Cl)cccc2n(C)c1=O)c1ccccc1	-7%
CCn1nc(C(=O)O)c(=O)c2cc3c(cc21)OCO3	-7%
CC(C)CCCCCCCCC[C@@H]1CC(=O)N[C@@H](CCC(=O)O)C(=O)N[C@@H](CC(C)C)C(=O)N[C@H](CC(C)C)C(=O)N[C@@H](C(C)C)C(=O)N[C@@H](CC(=O)O)C(=O)N[C@H](CC(C)C)C(=O)N[C@@H](CC(C)C)C(=O)O1	-46%
COc1ccc2c(c1OC)C(=O)OC2	3%

Sample 5 — concentration: 1 µM
SMILES: Cc1c(NC(=O)c2cc(C(N)=O)nc3cc(F)ccc23)c(C(F)(F)F)nn1Cc1ccc(C#N)cc1
target	assay	remaining binding [%]
Serine/threonine-protein kinase 35 (STK35, Homo sapiens, UniProt Q8TDR2)	cell-free assay, competition with immobilised ligand	85
Serine/threonine-protein kinase MRCK alpha (CDC42BPA, Homo sapiens, UniProt Q5VT25)	cell-free assay, competition with immobilised ligand	97
ALK tyrosine kinase receptor (ALK, Homo sapiens, UniProt Q9UM73)	cell-free assay, competition with immobilised ligand	87
Tyrosine-protein kinase Fes/Fps (FES, Homo sapiens, UniProt P07332)	cell-free assay, competition with immobilised ligand	83
Leucine-rich repeat serine/threonine-protein kinase 2 (LRRK2, Homo sapiens, UniProt Q5S007, G2019S)	cell-free assay, competition with immobilised ligand	100
Calcium/calmodulin-dependent protein kinase type 1B (PNCK, Homo sapiens, UniProt Q6P2M8)	cell-free assay, competition with immobilised ligand	64
Serine/threonine-protein kinase Sgk1 (SGK1, Homo sapiens, UniProt O00141)	cell-free assay, competition with immobilised ligand	90
Epidermal growth factor receptor (EGFR, Homo sapiens, UniProt P00533, G719C)	cell-free assay, competition with immobilised ligand	83
Protein-tyrosine kinase 2-beta (PTK2B, Homo sapiens, UniProt Q14289)	cell-free assay, competition with immobilised ligand	95
Serine/threonine-protein kinase PLK3 (PLK3, Homo sapiens, UniProt Q9H4B4)	cell-free assay, competition with immobilised ligand	84
Ankyrin repeat and protein kinase domain-containing protein 1 (ANKK1, Homo sapiens, UniProt Q8NFD2)	cell-free assay, competition with immobilised ligand	80
cAMP-dependent protein kinase catalytic subunit beta (PRKACB, Homo sapiens, UniProt P22694)	cell-free assay, competition with immobilised ligand	93
Phosphatidylinositol 4-kinase beta (PI4KB, Homo sapiens, UniProt Q9UBF8)	cell-free assay, competition with immobilised ligand	77
Mitogen-activated protein kinase 4 (MAPK4, Homo sapiens, UniProt P31152)	cell-free assay, competition with immobilised ligand	76
Phosphatidylinositol 4,5-bisphosphate 3-kinase catalytic subunit beta isoform (PIK3CB, Homo sapiens, UniProt P42338)	cell-free assay, competition with immobilised ligand	83
Phosphatidylinositol 4,5-bisphosphate 3-kinase catalytic subunit alpha isoform (PIK3CA, Homo sapiens, UniProt P42336, H1047L)	cell-free assay, competition with immobilised ligand	88
Casein kinase I isoform gamma-2 (CSNK1G2, Homo sapiens, UniProt P78368)	cell-free assay, competition with immobilised ligand	88
Serine/threonine-protein kinase 17B (STK17B, Homo sapiens, UniProt O94768)	cell-free assay, competition with immobilised ligand	72
Phosphatidylinositol 4,5-bisphosphate 3-kinase catalytic subunit alpha isoform (PIK3CA, Homo sapiens, UniProt P42336, E545K)	cell-free assay, competition with immobilised ligand	73
Phosphatidylinositol 4,5-bisphosphate 3-kinase catalytic subunit alpha isoform (PIK3CA, Homo sapiens, UniProt P42336, E545A)	cell-free assay, competition with immobilised ligand	81
Tyrosine-protein kinase Mer (MERTK, Homo sapiens, UniProt Q12866)	cell-free assay, competition with immobilised ligand	100
Mitotic checkpoint serine/threonine-protein kinase BUB1 (BUB1, Homo sapiens, UniProt O43683)	cell-free assay, competition with immobilised ligand	88
Mitogen-activated protein kinase 3 (MAPK3, Homo sapiens, UniProt P27361)	cell-free assay, competition with immobilised ligand	85
Tyrosine-protein kinase ABL1, phosphorylated (ABL1, Homo sapiens, UniProt P00519, F317I)	binding	75
Casein kinase II subunit alpha (CSNK2A1, Homo sapiens, UniProt P68400)	cell-free assay, competition with immobilised ligand	78

Some of these lines once more (sample 5):
target	assay	remaining binding [%]
Tyrosine-protein kinase Fes/Fps (FES, Homo sapiens, UniProt P07332)	cell-free assay, competition with immobilised ligand	83
Phosphatidylinositol 4-kinase beta (PI4KB, Homo sapiens, UniProt Q9UBF8)	cell-free assay, competition with immobilised ligand	77
Mitogen-activated protein kinase 4 (MAPK4, Homo sapiens, UniProt P31152)	cell-free assay, competition with immobilised ligand	76
Serine/threonine-protein kinase 17B (STK17B, Homo sapiens, UniProt O94768)	cell-free assay, competition with immobilised ligand	72
